Measurements from different studies.
Protocols differ between the studies behind these lines. ± gives the spread as reported.
Chain of UniProt P21554 (whole entry, unmodified, looked up): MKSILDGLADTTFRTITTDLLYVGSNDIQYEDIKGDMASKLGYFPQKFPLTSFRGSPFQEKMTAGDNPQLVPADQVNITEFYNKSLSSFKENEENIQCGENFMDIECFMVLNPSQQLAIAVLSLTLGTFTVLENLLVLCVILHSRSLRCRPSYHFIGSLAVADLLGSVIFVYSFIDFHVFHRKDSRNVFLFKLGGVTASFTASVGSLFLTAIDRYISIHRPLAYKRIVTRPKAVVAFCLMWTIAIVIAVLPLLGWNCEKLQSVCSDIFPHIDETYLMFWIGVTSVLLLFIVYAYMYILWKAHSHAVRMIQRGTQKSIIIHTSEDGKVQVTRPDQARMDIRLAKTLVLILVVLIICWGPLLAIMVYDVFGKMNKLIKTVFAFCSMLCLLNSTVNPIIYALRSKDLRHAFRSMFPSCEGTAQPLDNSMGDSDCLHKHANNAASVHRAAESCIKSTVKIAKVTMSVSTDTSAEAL
Chain of UniProt P41143 (whole entry, unmodified, looked up): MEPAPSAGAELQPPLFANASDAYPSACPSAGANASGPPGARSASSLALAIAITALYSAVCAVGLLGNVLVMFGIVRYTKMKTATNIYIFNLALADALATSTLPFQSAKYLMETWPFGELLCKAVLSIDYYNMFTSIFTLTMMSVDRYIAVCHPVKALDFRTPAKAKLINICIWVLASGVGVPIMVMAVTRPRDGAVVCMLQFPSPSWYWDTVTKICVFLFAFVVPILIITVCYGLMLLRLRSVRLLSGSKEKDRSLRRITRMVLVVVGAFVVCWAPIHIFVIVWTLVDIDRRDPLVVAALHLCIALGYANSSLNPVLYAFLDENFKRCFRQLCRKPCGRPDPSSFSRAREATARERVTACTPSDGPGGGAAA
Chain of UniProt P08631 (whole entry, unmodified, looked up): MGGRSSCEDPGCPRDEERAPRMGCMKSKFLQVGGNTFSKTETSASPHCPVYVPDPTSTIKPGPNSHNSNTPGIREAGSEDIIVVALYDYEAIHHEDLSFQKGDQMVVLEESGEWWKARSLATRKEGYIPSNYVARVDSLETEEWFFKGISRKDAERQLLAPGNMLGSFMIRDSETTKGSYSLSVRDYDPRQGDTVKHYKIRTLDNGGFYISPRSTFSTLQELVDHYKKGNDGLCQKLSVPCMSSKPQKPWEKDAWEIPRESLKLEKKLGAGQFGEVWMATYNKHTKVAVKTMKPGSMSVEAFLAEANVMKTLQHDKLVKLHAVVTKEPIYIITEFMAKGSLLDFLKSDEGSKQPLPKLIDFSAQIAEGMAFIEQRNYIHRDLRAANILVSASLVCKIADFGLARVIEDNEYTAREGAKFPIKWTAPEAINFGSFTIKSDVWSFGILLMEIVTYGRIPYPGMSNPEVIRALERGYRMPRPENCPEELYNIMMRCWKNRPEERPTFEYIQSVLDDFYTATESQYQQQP
Chain of UniProt Q01959 (whole entry, unmodified, looked up): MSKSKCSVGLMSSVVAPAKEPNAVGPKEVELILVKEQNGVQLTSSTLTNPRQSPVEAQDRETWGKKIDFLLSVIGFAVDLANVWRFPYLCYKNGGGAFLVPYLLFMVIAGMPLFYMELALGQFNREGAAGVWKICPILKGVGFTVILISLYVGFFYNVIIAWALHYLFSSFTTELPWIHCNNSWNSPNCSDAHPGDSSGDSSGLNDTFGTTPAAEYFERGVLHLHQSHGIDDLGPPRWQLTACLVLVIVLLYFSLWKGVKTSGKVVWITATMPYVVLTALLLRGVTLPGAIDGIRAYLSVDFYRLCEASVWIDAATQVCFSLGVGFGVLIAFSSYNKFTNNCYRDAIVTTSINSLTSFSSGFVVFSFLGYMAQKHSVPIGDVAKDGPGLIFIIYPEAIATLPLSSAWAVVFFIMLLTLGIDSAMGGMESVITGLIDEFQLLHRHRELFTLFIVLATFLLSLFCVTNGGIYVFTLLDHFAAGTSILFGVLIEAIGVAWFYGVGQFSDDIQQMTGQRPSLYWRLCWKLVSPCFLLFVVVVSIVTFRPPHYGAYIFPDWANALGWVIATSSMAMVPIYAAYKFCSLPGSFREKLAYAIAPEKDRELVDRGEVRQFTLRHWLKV
Chain of UniProt Q14790 (whole entry, looked up): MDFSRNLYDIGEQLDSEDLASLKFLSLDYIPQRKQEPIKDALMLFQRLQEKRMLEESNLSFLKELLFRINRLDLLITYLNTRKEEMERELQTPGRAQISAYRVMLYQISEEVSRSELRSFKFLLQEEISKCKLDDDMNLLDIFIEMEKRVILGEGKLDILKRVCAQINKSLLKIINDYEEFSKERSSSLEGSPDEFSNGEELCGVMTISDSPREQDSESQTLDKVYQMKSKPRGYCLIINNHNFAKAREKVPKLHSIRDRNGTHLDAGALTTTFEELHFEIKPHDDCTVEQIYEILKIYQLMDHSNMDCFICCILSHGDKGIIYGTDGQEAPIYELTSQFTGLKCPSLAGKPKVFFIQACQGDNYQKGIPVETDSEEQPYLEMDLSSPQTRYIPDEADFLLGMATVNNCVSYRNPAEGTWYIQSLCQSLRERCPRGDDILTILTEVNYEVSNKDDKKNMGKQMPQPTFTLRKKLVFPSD
Chain of UniProt P21917 (whole entry, looked up): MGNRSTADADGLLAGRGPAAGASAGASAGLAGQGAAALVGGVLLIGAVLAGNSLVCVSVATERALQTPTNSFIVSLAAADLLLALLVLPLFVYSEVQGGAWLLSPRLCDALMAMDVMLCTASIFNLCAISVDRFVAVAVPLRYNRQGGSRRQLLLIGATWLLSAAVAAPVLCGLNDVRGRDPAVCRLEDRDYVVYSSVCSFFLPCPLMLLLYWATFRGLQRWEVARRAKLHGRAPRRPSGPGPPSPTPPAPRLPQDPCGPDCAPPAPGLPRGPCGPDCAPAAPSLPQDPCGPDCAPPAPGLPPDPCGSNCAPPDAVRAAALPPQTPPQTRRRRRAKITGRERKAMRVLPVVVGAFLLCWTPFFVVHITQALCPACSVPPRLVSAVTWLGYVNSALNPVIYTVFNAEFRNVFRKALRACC

SMILES = CC(C)n1nc(-c2ccc3cc(OCc4cccc(Cl)c4)ccc3c2)c2c(N)ncnc21; target = Tyrosine-protein kinase HCK (HCK, Homo sapiens, UniProt P08631, Q523E/Q524E/Q525I); assay = enzyme activity, inhibitor; measurement = Ki; value = < 10 nM
SMILES = CCC[C@H](C(=O)c1ccccc1)N1CCCC1; target = Sodium-dependent dopamine transporter (SLC6A3, Homo sapiens, UniProt Q01959); assay = dopamine uptake, inhibitor; test system = HEK293 transiently transfected; conditions = DAT F76Y mutant, added: [3H]dopamine; measurement = Ki; value = 373 nM
SMILES = CCN(CC)C(=O)[C@@H]1C=C2c3cccc4c3c(cn4C(=O)c3ccco3)C[C@H]2N(C)C1; target = D(4) dopamine receptor (DRD4, Homo sapiens, UniProt P21917); assay = ligand displacement, radioligand; measurement = Ki; value = 2270 nM
SMILES = CCCCCn1cc(C(=O)c2cccc3ccccc23)c2ccccc21; target = Cannabinoid receptor 1 (CNR1, Homo sapiens, UniProt P21554, F177A); assay = cAMP, agonist, BRET; measurement = EC50; value = 15.1 nM
SMILES = O=[N+]([O-])CC(c1ccco1)c1c(-c2ccccc2)[nH]c2ccccc12 (stereo not shown); target = Cannabinoid receptor 1 (CNR1, Homo sapiens, UniProt P21554, I245M); assay = G protein activation, agonist, BRET; measurement = EC50; value = 260 nM
SMILES = Nc1ncnc2c1c(-c1ccc(Oc3ccccc3)cc1)nn2C1CCCC1; target = Proto-oncogene tyrosine-protein kinase Src (SRC, Gallus gallus, UniProt P00523, Y527F); assay = enzyme activity, inhibitor; measurement = Ki; value = 110 nM
SMILES = CCCCCn1cc(C(=O)c2ccc3ccccc3c2)c2ccccc21; target = Cannabinoid receptor 1 (CNR1, Homo sapiens, UniProt P21554, I267L/L193I/L359V); assay = cAMP inhibition, agonist, CAMYEL BRET biosensor; conditions = added: forskolin 10 µM; measurement = EC50; value = 55 nM
SMILES = CC(C)CC(C(=O)N1CC2(CC1C#N)C(=O)Nc1ccccc12)N(C)C(=O)c1cc2c(F)cc(F)c(F)c2[nH]1 (stereo not shown); target = Caspase-8 (CASP8, Homo sapiens, UniProt Q14790); assay = enzyme activity, inhibitor; measurement = IC50; value = 22500 nM
SMILES = Cc1ccc2c(C(C[N+](=O)[O-])c3cccs3)c(-c3ccccc3)[nH]c2c1 (stereo not shown); target = Cannabinoid receptor 1 (CNR1, Homo sapiens, UniProt P21554, I245F); assay = β-arrestin recruitment, agonist, luciferase; measurement = EC50; value = 110 nM
SMILES = CCN(CC)C(=O)c1ccc(C(c2cccc(O)c2)N2CC(C)N(Cc3ccccc3)CC2C)cc1 (stereo not shown); target = Delta-type opioid receptor (OPRD1, Homo sapiens, UniProt P41143, V217A); measurement = Ki; value = 0.76 ± 0.24 nM

For quick reference, copied from above:
SMILES = O=[N+]([O-])CC(c1ccco1)c1c(-c2ccccc2)[nH]c2ccccc12 (stereo not shown); target = Cannabinoid receptor 1 (CNR1, Homo sapiens, UniProt P21554, I245M); assay = G protein activation, agonist, BRET; measurement = EC50; value = 260 nM
SMILES = Nc1ncnc2c1c(-c1ccc(Oc3ccccc3)cc1)nn2C1CCCC1; target = Proto-oncogene tyrosine-protein kinase Src (SRC, Gallus gallus, UniProt P00523, Y527F); assay = enzyme activity, inhibitor; measurement = Ki; value = 110 nM
